Measured values collected from several papers.
Numbered parts are unrelated; each lists some results of a single study.

Study 1 — method: competition protein-binding microarray; molecule type: double-stranded DNA, one strand shown; medium: in vitro; concentration: 2 µM; with: Pho4 competitor, 0.05 µM; direction: higher = stronger binding; constant ends, left off below: … GTCTTGATTCGCTTGACGCTGCTG
Target: Centromere-binding protein 1, full length, His-tagged (CBF1, Saccharomyces cerevisiae, UniProt P17106, residues 1-351)
UniProt P17106, sequence (whole entry, looked up): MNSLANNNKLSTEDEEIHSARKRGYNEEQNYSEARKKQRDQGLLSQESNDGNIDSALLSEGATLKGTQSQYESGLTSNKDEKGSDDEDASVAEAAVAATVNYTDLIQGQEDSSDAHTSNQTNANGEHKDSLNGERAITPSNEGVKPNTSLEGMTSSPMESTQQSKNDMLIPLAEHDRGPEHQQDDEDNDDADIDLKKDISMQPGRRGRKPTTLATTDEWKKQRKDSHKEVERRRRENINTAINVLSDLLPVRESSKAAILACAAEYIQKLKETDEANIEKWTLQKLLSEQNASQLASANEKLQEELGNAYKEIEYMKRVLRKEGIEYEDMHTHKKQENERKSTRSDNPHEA
Notes: whole 60-bp probe, lowest competitor level
`CCAACCTGGCTTGCCCACGAGGATGGCTTTCTGGCT` has a fluorescence intensity of 68.2 a.u.
With `CTTTCCCGATCTTGTGACGTGGGTGTAGCACATTTG` the fluorescence intensity was 210 a.u.
`AAATTACTAAGTTTGCACGTGTTTTACCCCGTATGA` has a fluorescence intensity of 2210 a.u.
For `ACCGAGGACCAGGCCCATGTGGCAGAGTAGCTGCTG`, the fluorescence intensity was 53 a.u.
`CTTTCCCGATCTTGCCTAGTGGGTGTAGCACATTTG` gave a fluorescence intensity of 65 a.u.
`CCTGCCCGGTCTCCACACGTGGGTAGCCAGAGCCCG` gave a fluorescence intensity of 346 a.u.
The fluorescence intensity of `AAATTACTAAGTTTTCACGTGACTTACCCCGTATGA` is reported as 7840 a.u.
For `TTGCTAACGGATTAAAACGTGTGGAATTATTGTTGC`, the fluorescence intensity was 155 a.u.
`TTTAGTGTCTCTGCCTATGTGATGGGTCTGTTTCCT` has a fluorescence intensity of 69 a.u.
The fluorescence intensity of `AGATTGCTTTTCTCACGCCTGTTTTACGTCTCCAGG` is reported as 76.2 a.u.
For `TAATTCCAGGTTGAGCGCGTGGCCGCCTATAATCCA`, the fluorescence intensity was 70.7 a.u.
`CGTCCTAGTGATTGGCAAGTGGGTGCCATGAGGAAG` gave a fluorescence intensity of 75 a.u.
`CCAAATTATGATTTGCACGTATATGATCGTCTTTAT` gave a fluorescence intensity of 103 a.u.
For `CGCGATTATGGGCCGCTCGTGACGGTAAAGGAAGCA`, the fluorescence intensity was 193 a.u.
With `CTTCTGTAAATTTTTCACGTGGACTGACGCGCCCCG` the fluorescence intensity was 595 a.u.
`TGCCAAAATCTGCCTCAGGTGACAAGCCATTTTTCC` gave a fluorescence intensity of 201 a.u.
`CATACCCAACCTTGAACCGTGGGTGAAGATATTTGT` gave a fluorescence intensity of 72.1 a.u.
For `CTTCTGTAAATTTGCGGAGTGGGTGGACGCGCCCCG`, the fluorescence intensity was 81.7 a.u.
`GCTGCAAGATTAGTCTATGTGACGGTGCCTTTTTTG` has a fluorescence intensity of 79.5 a.u.
`TTGACCCAACTCGGCCACGTGGGTAGTTTTGCCATC` has a fluorescence intensity of 953 a.u.

Study 2 — method: protein-binding microarray; molecule type: double-stranded DNA, one strand shown; medium: in vitro; concentration: 250 nM; notes: 60-bp whole probe; with: salmon DNA 0.4 mg/ml; relative to: random background probes; direction: higher = stronger binding; constant ends, left off below: GCCTAGCAC … GTCTTGATTCGCTTGACGCTGCTG
Target: Interferon regulatory factor 7, full length, phosphomimetic (IRF7, Homo sapiens, UniProt Q92985, residues 1-503, S101K/S471D/S472D/S475D/S476D/S477D/S483D/S484D/S487D)
UniProt Q92985, sequence (whole entry, unmodified, looked up): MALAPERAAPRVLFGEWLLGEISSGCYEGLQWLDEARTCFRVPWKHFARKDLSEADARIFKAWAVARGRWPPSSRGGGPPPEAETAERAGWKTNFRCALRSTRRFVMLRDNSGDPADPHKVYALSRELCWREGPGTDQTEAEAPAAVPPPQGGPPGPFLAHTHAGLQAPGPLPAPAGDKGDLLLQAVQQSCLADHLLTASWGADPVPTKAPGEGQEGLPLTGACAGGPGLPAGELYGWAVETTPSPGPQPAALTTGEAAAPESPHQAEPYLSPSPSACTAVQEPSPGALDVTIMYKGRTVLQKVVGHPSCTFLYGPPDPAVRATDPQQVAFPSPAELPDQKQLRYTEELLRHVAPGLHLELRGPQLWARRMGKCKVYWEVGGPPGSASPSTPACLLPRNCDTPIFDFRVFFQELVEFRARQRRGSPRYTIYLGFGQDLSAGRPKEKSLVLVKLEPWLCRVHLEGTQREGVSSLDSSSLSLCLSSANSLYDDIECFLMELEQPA
`TTAGGACTGCTTCCCCTTTAGTGCTAG` gave a log fluorescence of 0.581 z-score.
The log fluorescence of `GACCGACTGCTTTTCCTGACGTGCTAG` is reported as 0.152 z-score.
`TTAGATATCGCGTTTCGATTAGTGCTA` gave a log fluorescence of 2.48 z-score.
With `GACGGACTGCTACTGTTGACGTGCTAG` the log fluorescence was -0.641 z-score.
For `GACGGTTGCCTACTGCTGACGTGCTAG`, the log fluorescence was -0.6 z-score.
The log fluorescence of `GACGGTTTCGGTCGCGGGACGTGCTAG` is reported as 3.73 z-score.
For `GTCTGTTTGGGTCTTGTCTGGTGCTAG`, the log fluorescence was 0.188 z-score.
`TGCTTTCCAATTCTCTTTTCGTGCTAG` gave a log fluorescence of 3.75 z-score.
The log fluorescence of `TTAAGACTGGGGTATCGGTTAGTGCTA` is reported as -0.00674 z-score.
For `GACGGACTAGGACTGGGGACGTGCTAG`, the log fluorescence was -0.217 z-score.
`GACGGTTTCGGTATCGTGACGTGCTAG` has a log fluorescence of 10.6 z-score.
For `GACGAACTGAGTAGCGAGACGTGCTAG`, the log fluorescence was -0.363 z-score.
With `GACCATTTCAGTATCGAGACGTGCTAG` the log fluorescence was 1.47 z-score.
The log fluorescence of `TCAGGTCTCTAACTCAAACTGTGCTAG` is reported as 0.37 z-score.
For `TCATTTTTTCATATATAACTGTGCTAG`, the log fluorescence was 1.29 z-score.
The log fluorescence of `GACGGTATGCTTTTCCTGACGTGCTAG` is reported as -0.158 z-score.
With `ATGTGTTTACAGATGTTTTTGTGCTAG` the log fluorescence was 0.215 z-score.
The log fluorescence of `AGAGGCGGGAGGGGGCGGGGGTGCTAG` is reported as 4.01 z-score.
The log fluorescence of `GACGGTATCGGTTTCGTGACGTGCTAG` is reported as 5.78 z-score.
For `GGCAGCCTCTGCATTCCCTCAGTGCTA`, the log fluorescence was -1.37 z-score.
The log fluorescence of `TCAGGTCTCGGTCTCGGTTAGTGCTAG` is reported as 2.58 z-score.
The log fluorescence of `GACGGTCTCGGTATTGGGACGTGCTAG` is reported as 1.6 z-score.
`TCATGTACATCTCTCTTACTGTGCTAG` has a log fluorescence of 0.176 z-score.
With `TATTTTTTTGTAATCGAAATGTGCTAG` the log fluorescence was 1.07 z-score.
`TCATGTTTGGTTCTGATACTGTGCTAG` gave a log fluorescence of 0.676 z-score.

Study 3 — method: protein binding microarray; molecule type: double-stranded DNA, one strand shown; medium: in vitro; concentration: not given; relative to: not given; direction: higher = stronger binding
Target: Histone acetyltransferase KAT6A, winged helix 1, GST fusion (KAT6A, Homo sapiens, UniProt Q92794, residues 1-85)
Notes: 8-mer, flanks averaged, mean of 2 arrays, mostly near background
Construct (chain): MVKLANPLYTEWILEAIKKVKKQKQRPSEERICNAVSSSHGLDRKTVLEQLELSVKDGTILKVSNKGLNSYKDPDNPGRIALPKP
For `AGTGTCCC`, the E-score was 0.0585.
For `TATGGGAA`, the E-score was -0.147.
For `GACGCGCA`, the E-score was 0.323.
`ACAGATCC` has an E-score of -0.0949.
`ACTCAGCG` gave an E-score of 0.0416.
The E-score of `CGTGAAAC` is reported as 0.111.
`AGAAAGCC` gave an E-score of -0.0454.
`GGTTGTCA` has an E-score of -0.172.
`AAGTAGGC` gave an E-score of -0.146.
For `CTGGCGTA`, the E-score was 0.0133.
`AACTCTCT` has an E-score of -0.239.
The E-score of `CTGCGACC` is reported as -0.0178.
`AGGTCACG` gave an E-score of -0.035.
`ACGTCGAA` has an E-score of -0.15.
`CAACTATA` has an E-score of -0.067.
The E-score of `CGCTCGCC` is reported as 0.228.
`GCTGTCAC` has an E-score of -0.108.
`CAACCGCA` gave an E-score of 0.104.
`GTTGGCCA` has an E-score of -0.173.
With `GCTTTCGA` the E-score was -0.0916.
For `GATCGGTA`, the E-score was 0.201.
For `CGCTTACG`, the E-score was 0.344.
The E-score of `GCATTTAC` is reported as 0.00442.

Study 4 — method: RNA Bind-n-Seq; molecule type: RNA; medium: in vitro; concentration: 365 nM; relative to: no-protein control; direction: higher = stronger binding
Target: RNA binding protein fox-1 homolog 2, RRM domain, GST-SBP tag (RBFOX2, Homo sapiens, UniProt O43251-10, residues 100-194)
Notes: natural RNA segment, single round, ends assumed
Constant ends, left off below: GGGAGUUCUACAGUCCGACGAUC … UGGAAUUCUCGGGUGCCAA
Target sequence (chain): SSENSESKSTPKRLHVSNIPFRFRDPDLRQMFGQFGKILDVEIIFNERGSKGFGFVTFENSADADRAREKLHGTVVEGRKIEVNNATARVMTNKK
For `AUGACCAGUAUUUCCAGAGUAAGGUGGAAGAUGAGAAAGAGAUAAGUUACCAAGAGAAGCUGGAGGGAUACCUCUGAGUGACUGCUGUGUUUCUUCUAUUGUAGACACCA`, “RBNS enrichment (R)” read 0.683.
`AUGUGGGCUCCAAACCAGAAUAGAGCCUCUGCCAAGGAGCUGGAAACAGCCCAGUGAGGCUGAAGUUCUCUUGUAGAAAUUCCUUUCCUGGGUAAAGUGAUGAGCCAUGU`: “RBNS enrichment (R)” 0.256.
For `GAUCCAAUUAUCUUUCUGAUCCUUAAAACACAUGACUUCCAGCUGAAGAGAUGGCUCAGUGGUUCAGAGCACUUACUCCUCAGGUGUAAGACCUGGGUUUGGUUCUCAGC`, “RBNS enrichment (R)” read 0.394.
`GUAUCGUGUUGUGGGCUGUUUGAGAAGACCUGUCCUCCUGAGCUGCUCCUUCCCAUGGUGCUCACAGGCCAGCAGAGCACCUCUUGUAGAUCUUGUUCCACCUCUAAUCU` — result for “RBNS enrichment (R)”: 0.772.
`UGGGAGUGCAUUGAGAGAUGAUGUCCAUCUGAUAUAUUCCUGUGAAAUAAACUGCCAGCAAACUUUCUAACUUGUAUUUUAACUGUUAAAGAAGAGAUUAAAAACUUCGG`: “RBNS enrichment (R)” 0.52.
`CAUGUGGCAACCUUUACUUCUAUGCCUCACAAGUGCCUUUCAGAGAGCCCCAAUUCUGCUUUCCCACAAAAUAAACCUAAUGCCAUCAGGCAAAACAUUUCUGUGUCUGU` — result for “RBNS enrichment (R)”: 0.63.
`UUUAAAGAUGAACUGAAAUGCACAUAGCCAAGUCUUGAGAUACAAGAUUGAAUGUGUAUUUCUUAAAAAUACAACUUUGUGUUGUACUUUGAAAUAAAUGAUGCUUUUUU`: “RBNS enrichment (R)” 0.423.
`CUCUUCUAUGUGGCAGGGGCUGAUAGGGCAAAAUAAAAUGACAAUUUCUUUAUUGCUACAGAGUAUCCUCUAUAAGUUAUUAAACGAGUGUAAUGGUAUAAUGCCCUUCC`: “RBNS enrichment (R)” 0.289.
`GUGUUUUAUUUGCCAUGUAUCAUCUUUUGUUAUCAAGAGAAGUGUAUGAUGCUUGCUUUAUGCCAUAGCCAUCUAUAUUGUAAUUUAUCUAUACAAUUAAACAAAUUUAA`: “RBNS enrichment (R)” 0.542.
For `GCCAGCCCUGCAGCUUCAGCACCUGCCCCACCCAGAGUGGGAGUCAGGUGGAGCCACCUGCUGGGCUCCCCCAGAACUUUGCACACAUCUUGCUAUGUAUUAGCCGAUGU`, “RBNS enrichment (R)” read 0.241.
`GGUACAGUUUGUUUAUGCAGGAGGAUGGCAUGCCAACUUCCCAGCUGCCUACUAGCAGUUUAACAAGGAGCCUUGCUGUCUCAGACAGGUGAAAGAAAAUGUCAUGCAUG` — result for “RBNS enrichment (R)”: 1.31.
Under “RBNS enrichment (R)”, `UGCCCUGUGCCUGGCAGGGAGCGCUUGCAGAGGUGUCCUAGCCUUAGAGGGCUACUUCAGUGUCUCUACUGACAGAAACUCCUGUAUCUCAAAUGGAUCUCGAAGUUCUC` is recorded as 0.252.

Study 5 — method: RNA Bind-n-Seq; molecule type: RNA; medium: in vitro; concentration: 90 pmol; notes: 4-mer, random 30-nt RNA, single round; with: 3 µM DMDA-PatA, 2 mM ADP, 2 mM phosphate; relative to: input library; direction: higher = stronger binding
Target: ATP-dependent RNA helicase DDX3X, helicase core (DDX3X, Homo sapiens, UniProt O00571, residues 132-607)
UniProt O00571, sequence (132-607, looked up): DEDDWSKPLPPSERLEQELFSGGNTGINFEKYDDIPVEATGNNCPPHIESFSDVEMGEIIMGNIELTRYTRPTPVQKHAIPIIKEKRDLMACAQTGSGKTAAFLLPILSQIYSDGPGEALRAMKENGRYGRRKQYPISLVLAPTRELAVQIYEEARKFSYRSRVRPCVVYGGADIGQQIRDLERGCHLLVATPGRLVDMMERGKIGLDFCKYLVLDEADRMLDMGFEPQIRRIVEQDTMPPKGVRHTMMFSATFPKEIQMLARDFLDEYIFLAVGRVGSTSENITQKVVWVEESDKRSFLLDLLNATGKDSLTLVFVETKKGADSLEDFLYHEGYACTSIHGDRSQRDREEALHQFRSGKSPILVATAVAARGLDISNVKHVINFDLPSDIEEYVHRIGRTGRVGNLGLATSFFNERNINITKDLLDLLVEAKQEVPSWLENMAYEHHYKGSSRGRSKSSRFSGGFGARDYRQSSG
The 4-mer enrichment of `GGUC` is reported as 0.869 fold.
The 4-mer enrichment of `GAUG` is reported as 0.902 fold.
`CCGU` has a 4-mer enrichment of 0.871 fold.
With `UUCA` the 4-mer enrichment was 0.989 fold.
`GCGG` gave a 4-mer enrichment of 0.994 fold.
`UUUA` gave a 4-mer enrichment of 1.09 fold.
`CCCC` gave a 4-mer enrichment of 1.33 fold.
With `ACAG` the 4-mer enrichment was 0.942 fold.
With `AAGG` the 4-mer enrichment was 1.21 fold.
For `UUGC`, the 4-mer enrichment was 0.851 fold.
`CCCA` has a 4-mer enrichment of 1.16 fold.
`ACUU` has a 4-mer enrichment of 0.789 fold.
For `GCCU`, the 4-mer enrichment was 0.805 fold.
`CAAA` gave a 4-mer enrichment of 1.08 fold.
With `ACGC` the 4-mer enrichment was 1.01 fold.
`GGAU` has a 4-mer enrichment of 0.936 fold.
The 4-mer enrichment of `AGGU` is reported as 1.11 fold.
For `UCGG`, the 4-mer enrichment was 0.895 fold.
For `UAAU`, the 4-mer enrichment was 0.999 fold.
With `GACC` the 4-mer enrichment was 0.891 fold.
`CAGG` has a 4-mer enrichment of 1.05 fold.
With `UCGA` the 4-mer enrichment was 0.896 fold.
`ACCA` has a 4-mer enrichment of 1 fold.
`UACA` has a 4-mer enrichment of 0.969 fold.
The 4-mer enrichment of `AUCC` is reported as 0.916 fold.
